Assay results collected from several papers.
Every numbered part comes from another study and shows a few of its results, in no order. “And” joins repeats or separate records; there may be more than shown.
Sequence of UniProt P29376 (whole entry, looked up): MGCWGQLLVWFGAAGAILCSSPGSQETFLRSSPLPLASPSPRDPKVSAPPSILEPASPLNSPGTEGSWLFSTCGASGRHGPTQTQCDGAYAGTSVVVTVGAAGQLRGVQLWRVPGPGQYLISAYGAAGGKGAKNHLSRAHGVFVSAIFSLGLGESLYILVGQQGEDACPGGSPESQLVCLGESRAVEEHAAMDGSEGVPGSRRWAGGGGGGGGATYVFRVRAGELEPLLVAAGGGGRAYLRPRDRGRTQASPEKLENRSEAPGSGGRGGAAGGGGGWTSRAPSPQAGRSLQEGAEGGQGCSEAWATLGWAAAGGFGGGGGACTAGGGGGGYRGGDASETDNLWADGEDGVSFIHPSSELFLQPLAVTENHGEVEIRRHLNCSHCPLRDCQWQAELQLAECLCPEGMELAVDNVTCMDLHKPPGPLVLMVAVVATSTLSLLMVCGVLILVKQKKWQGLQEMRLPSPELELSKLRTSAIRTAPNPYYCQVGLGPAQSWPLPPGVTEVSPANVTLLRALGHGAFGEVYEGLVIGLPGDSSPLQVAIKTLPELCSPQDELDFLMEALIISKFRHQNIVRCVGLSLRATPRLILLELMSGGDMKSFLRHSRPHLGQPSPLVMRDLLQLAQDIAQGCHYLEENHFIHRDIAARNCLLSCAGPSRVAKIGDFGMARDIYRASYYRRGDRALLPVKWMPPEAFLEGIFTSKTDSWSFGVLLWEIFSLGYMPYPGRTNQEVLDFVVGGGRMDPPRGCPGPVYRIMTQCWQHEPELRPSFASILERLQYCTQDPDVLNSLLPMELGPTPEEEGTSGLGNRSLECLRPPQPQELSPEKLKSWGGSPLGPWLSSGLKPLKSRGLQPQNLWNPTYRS

Study 1 — method: Incucyte 3D growth; concentration: 30 µM; direction: higher = more growth
Structure (SMILES): CC(C)(C(=O)O)[C@H](NC(=O)Cc1cccc(I)c1)c1ccc2oc(=O)[nH]c2c1
It gave 2e+07 a.u. and 1.93e+07 a.u. and 1.78e+07 a.u. and 1.59e+07 a.u. and 1.98e+07 a.u. and 1.94e+07 a.u. for spheroid area (KP-4; 120 h).
It gave 9.54e+07 a.u. and 7.37e+07 a.u. and 1.11e+08 a.u. and 3.17e+07 a.u. and 7.82e+07 a.u. and 5.32e+07 a.u. for spheroid area (KP-4; 294 h).
NCI-H1437; 60 h — spheroid area: 2.13e+07 a.u. and 2.38e+07 a.u. and 2.66e+07 a.u. and 2.59e+07 a.u. and 3.05e+07 a.u.
MEL-JUSO; 498.52 h — spheroid area: 2.46e+07 a.u. and 7.54e+07 a.u. and 5.52e+07 a.u. and 1.89e+07 a.u. and 2.43e+07 a.u. and 3.18e+07 a.u.
NCI-H1437; 84 h — spheroid area: 2.44e+07 a.u. and 2.99e+07 a.u. and 3.06e+07 a.u. and 2.42e+07 a.u. and 2.9e+07 a.u.
It gave 1.05e+08 a.u. and 9.24e+07 a.u. and 5.1e+07 a.u. and 7.44e+07 a.u. and 2.93e+07 a.u. and 7.34e+07 a.u. for spheroid area (KP-4; 288 h).
It gave 7.37e+06 a.u. and 7.27e+06 a.u. and 9.02e+06 a.u. and 7.22e+06 a.u. and 6.13e+06 a.u. and 9.64e+06 a.u. for spheroid area (A375; 0.52 h).
MEL-JUSO; 84.52 h — spheroid area: 1.42e+07 a.u. and 1.36e+07 a.u. and 1.34e+07 a.u. and 1.5e+07 a.u. and 1.27e+07 a.u. and 1.24e+07 a.u.

Study 2 — organism: Sarcocystis neurona; read-out: parasite growth; concentration: 10 µM; notes: secondary screen
With COCCOC(=O)C1=C(C)NC(C)=C(C(=O)OC(C)C)C1c1cccc([N+](=O)[O-])c1 (stereo not drawn) the inhibition was -31%.
With C[N+]1(C)CCC(OC(=O)C(O)(c2ccccc2)C2CCCC2)C1.[Br-] (stereo not drawn) the inhibition was -2.9%.
For Cc1ccc(-c2cc(C(F)(F)F)nn2-c2ccc(S(N)(=O)=O)cc2)cc1, the inhibition was -56.6%.
O=C(O)CCCc1ccccc1 gave an inhibition of -30.9%.
CC1(C)C[C@@H]1C(=O)N/C(=C\CCCCSC[C@H](N)C(=O)O)C(=O)[O-].[Na+] has an inhibition of -47.3%.
For CCN(CC)CC(=O)Nc1c(C)cccc1C, the inhibition was -51.2%.
CC(=O)O[C@]1(C(C)=O)CC[C@H]2[C@@H]3C=C(C)C4=CC(=O)CC[C@]4(C)[C@H]3CC[C@@]21C gave an inhibition of -7.9%.
OCCN(CCO)c1nc(N2CCCCC2)c2nc(N(CCO)CCO)nc(N3CCCCC3)c2n1 has an inhibition of -51.3%.

Mixed results
Nc1cccc(-c2cc3c(Oc4cccc(O)c4)ncnc3[nH]2)c1 has a remaining activity of 16.8% (LTK (Homo sapiens, UniProt P29376); enzyme activity, inhibitor, radiometric; 0.5 µM).
Under “AUC(0-inf), geometric mean”, COc1ccc(-c2c(Nc3ccccn3)[nH]c3c(C4=CCCCC4)c(-c4ccccc4)nn3c2=O)cc1 is recorded as 46500 ng·h/mL (cancer patients, plasma; oral, 100 mg, cycle 0 day -3, single dose).

Excerpt of the above (study 2):
With COCCOC(=O)C1=C(C)NC(C)=C(C(=O)OC(C)C)C1c1cccc([N+](=O)[O-])c1 (stereo not drawn) the inhibition was -31%.
With C[N+]1(C)CCC(OC(=O)C(O)(c2ccccc2)C2CCCC2)C1.[Br-] (stereo not drawn) the inhibition was -2.9%.
